Experimental data collected from several papers.
A part holds a random share of what one study measured. Positions count from the first letter of the parent shown.
Chain of UniProt Q9FKM7 (whole entry, looked up): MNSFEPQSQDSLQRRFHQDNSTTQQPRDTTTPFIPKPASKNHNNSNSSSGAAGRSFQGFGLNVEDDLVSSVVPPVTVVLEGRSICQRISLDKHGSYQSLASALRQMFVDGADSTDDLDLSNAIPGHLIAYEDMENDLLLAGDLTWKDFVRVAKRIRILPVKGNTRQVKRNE
Chain of UniProt Q84WU6 (whole entry, looked up): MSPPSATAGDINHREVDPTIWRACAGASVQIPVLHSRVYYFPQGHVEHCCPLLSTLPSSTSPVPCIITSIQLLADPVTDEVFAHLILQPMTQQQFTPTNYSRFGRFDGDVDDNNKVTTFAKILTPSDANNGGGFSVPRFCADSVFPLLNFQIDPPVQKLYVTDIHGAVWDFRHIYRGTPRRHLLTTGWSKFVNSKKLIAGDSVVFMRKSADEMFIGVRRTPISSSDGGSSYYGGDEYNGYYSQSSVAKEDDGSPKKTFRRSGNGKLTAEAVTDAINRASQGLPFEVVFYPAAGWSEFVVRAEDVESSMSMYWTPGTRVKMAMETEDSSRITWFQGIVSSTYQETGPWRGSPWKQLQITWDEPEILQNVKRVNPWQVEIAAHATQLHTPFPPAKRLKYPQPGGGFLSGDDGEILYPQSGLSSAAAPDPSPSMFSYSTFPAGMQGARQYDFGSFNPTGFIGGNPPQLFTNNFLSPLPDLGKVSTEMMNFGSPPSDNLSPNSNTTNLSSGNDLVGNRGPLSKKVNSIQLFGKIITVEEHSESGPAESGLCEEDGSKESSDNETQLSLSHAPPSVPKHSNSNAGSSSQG
Chain of UniProt P62837 (whole entry, looked up): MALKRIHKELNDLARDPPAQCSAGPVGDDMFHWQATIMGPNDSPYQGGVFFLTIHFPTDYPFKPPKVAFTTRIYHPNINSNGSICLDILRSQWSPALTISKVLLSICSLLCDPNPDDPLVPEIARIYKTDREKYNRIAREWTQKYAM
Chain of UniProt Q9FGV1 (whole entry, looked up): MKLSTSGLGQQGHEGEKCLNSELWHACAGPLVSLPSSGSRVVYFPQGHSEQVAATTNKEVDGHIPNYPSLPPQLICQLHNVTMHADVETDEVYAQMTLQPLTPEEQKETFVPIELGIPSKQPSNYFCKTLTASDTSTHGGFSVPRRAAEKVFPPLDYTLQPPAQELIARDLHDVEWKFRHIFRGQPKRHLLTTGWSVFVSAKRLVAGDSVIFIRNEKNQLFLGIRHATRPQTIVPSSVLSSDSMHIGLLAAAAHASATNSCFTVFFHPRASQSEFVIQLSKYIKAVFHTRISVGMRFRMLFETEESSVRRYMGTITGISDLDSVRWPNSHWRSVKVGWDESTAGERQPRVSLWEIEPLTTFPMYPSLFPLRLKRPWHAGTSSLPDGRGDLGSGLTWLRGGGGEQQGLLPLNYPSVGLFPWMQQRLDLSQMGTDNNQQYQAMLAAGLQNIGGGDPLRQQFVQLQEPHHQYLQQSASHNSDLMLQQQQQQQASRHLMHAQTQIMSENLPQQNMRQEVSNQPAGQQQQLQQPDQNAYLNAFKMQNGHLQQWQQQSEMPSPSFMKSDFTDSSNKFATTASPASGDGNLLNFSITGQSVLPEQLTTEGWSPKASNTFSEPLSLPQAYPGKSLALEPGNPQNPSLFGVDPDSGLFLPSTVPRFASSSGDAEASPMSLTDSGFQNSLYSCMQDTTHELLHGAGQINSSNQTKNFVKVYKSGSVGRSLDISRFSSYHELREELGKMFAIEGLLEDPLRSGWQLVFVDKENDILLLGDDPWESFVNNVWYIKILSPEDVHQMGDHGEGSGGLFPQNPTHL
Chain of UniProt Q9XED8 (whole entry, looked up): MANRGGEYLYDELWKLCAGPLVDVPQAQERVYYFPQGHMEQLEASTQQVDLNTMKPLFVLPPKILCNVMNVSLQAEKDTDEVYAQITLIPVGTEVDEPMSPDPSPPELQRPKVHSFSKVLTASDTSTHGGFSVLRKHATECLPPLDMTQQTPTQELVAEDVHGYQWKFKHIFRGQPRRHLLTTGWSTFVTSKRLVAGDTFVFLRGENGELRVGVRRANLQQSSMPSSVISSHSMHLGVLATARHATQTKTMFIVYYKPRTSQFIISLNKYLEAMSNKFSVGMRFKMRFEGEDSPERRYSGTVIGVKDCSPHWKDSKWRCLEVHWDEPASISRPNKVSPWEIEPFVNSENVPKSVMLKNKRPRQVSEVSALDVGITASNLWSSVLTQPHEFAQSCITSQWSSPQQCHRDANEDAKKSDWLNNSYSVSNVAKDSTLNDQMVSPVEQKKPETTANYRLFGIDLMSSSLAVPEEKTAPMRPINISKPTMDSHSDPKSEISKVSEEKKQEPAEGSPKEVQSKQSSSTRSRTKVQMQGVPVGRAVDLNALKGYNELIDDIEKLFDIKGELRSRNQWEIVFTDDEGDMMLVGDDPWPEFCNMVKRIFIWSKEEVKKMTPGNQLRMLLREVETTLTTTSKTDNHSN
Chain of UniProt Q9XFM0 (whole entry, looked up): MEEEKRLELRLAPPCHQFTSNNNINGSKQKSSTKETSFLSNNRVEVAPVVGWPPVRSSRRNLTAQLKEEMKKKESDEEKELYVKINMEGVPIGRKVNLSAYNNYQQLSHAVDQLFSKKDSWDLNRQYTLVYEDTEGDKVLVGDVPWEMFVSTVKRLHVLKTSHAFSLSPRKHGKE
Chain of UniProt Q9ZPY6 (whole entry, looked up): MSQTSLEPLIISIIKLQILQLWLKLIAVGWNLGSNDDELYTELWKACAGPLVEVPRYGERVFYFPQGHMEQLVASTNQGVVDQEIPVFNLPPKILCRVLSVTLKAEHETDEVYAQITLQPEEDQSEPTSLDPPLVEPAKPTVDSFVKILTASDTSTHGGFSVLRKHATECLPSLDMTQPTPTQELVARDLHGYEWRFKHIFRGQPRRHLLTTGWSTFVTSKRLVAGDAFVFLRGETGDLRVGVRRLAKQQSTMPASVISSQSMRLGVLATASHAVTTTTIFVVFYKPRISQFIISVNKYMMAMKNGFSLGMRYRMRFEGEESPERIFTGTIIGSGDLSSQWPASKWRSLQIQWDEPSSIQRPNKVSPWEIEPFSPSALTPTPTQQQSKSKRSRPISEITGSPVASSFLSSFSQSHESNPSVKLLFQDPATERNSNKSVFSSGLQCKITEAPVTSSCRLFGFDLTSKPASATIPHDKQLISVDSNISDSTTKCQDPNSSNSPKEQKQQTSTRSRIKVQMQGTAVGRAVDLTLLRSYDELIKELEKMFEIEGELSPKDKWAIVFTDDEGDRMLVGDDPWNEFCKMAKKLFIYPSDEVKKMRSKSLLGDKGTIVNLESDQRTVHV
Chain of UniProt Q93WC4 (whole entry, looked up): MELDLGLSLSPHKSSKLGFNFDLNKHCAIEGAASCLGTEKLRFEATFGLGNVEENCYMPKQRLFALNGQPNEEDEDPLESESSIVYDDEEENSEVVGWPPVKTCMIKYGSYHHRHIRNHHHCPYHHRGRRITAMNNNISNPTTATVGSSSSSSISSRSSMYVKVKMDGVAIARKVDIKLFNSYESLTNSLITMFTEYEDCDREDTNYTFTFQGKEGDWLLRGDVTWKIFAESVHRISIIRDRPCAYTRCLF
Chain of UniProt Q9M1R4 (whole entry, looked up): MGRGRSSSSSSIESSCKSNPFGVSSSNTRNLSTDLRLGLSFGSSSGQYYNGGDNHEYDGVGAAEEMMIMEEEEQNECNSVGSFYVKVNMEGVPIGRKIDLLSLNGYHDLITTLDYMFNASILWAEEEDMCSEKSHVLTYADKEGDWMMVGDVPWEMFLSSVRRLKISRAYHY

Set 1 — observed: peptide-MHC binding; form: peptide; concentration: concentration not given
Target: HLA class I histocompatibility antigen, A alpha chain, allele A*80:01 (Homo sapiens, UniProt P04439)
For `MHYGYNRAN`, binding read “inactive”.
`HTEFQTVSF`: binding “inactive”.
Under binding, `VTENKKIQY` is recorded as “inactive”.

Set 2 — target: CCND1, cyclin fold, Cln2 fusion (human); method: yeast growth competition, sequencing; matrix: yeast; setting: weak parent motif; reference: not given; reading: higher = stronger binding
Parent: viral docking peptide; TSVRRALFTGGSD; partner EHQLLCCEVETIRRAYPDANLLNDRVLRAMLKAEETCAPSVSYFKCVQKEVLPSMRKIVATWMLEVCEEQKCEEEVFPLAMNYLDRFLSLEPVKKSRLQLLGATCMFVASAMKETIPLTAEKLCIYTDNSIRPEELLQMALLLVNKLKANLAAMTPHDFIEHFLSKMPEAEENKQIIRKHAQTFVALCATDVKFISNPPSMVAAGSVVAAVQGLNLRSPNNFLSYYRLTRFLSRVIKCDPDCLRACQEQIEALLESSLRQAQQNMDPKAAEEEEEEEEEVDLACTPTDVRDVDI
Under “normalised enrichment score”, `TSVRRALFGGGSD [T9G]` is recorded as 0.627.
`TSVRRALFTGRSD [G11R]` — result for “normalised enrichment score”: 0.218.
Under “normalised enrichment score”, `TSVNRALFTGGSD [R4N]` is recorded as 0.36.
Under “normalised enrichment score”, `TSVRRALFTGGQD [S12Q]` is recorded as 0.499.
`TSVRVALFTGGSD [R5V]` — result for “normalised enrichment score”: 0.279.
Under “normalised enrichment score”, `TSVRRALFTGGDD [S12D]` is recorded as 0.984.
`TSVRTALFTGGSD [R5T]`: “normalised enrichment score” -0.262.
For `TSVRRAAFTGGSD [L7A]`, “normalised enrichment score” read 0.157.
`TSVRRALFTGWSD [G11W]` — result for “normalised enrichment score”: 0.347.
Under “normalised enrichment score”, `TSVRRALFTDGSD [G10D]` is recorded as 1.08.
For `TSQRRALFTGGSD [V3Q]`, “normalised enrichment score” read -0.348.
For `TSVRRKLFTGGSD [A6K]`, “normalised enrichment score” read 0.306.
For `TSVRRALFTGNSD [G11N]`, “normalised enrichment score” read 0.296.
`TSVRRALFTGGPD [S12P]` — result for “normalised enrichment score”: 0.456.
Under “normalised enrichment score”, `TSVRRAFFTGGSD [L7F]` is recorded as -0.126.
For `TSVRRALFTGPSD [G11P]`, “normalised enrichment score” read 0.753.

Set 3 — method: two-hybrid; reading: higher = firmer interaction
Molecule: IAA26 (Arabidopsis thaliana, UniProt Q8LAL2)
Chain of UniProt Q8LAL2 (whole entry, looked up): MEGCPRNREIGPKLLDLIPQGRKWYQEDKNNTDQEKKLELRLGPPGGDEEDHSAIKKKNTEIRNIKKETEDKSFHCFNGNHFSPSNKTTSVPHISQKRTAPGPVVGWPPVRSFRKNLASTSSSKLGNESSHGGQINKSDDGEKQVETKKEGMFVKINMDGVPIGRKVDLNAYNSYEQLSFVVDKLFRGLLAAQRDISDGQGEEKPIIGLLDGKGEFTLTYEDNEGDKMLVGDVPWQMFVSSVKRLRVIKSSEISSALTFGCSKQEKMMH
The positive tests was 0 (ARF17 (Arabidopsis thaliana, UniProt Q84WU6); weak activation fusion; reference: out of 3 tests).
The positive tests was 1 (ARF8 699-811 (Arabidopsis thaliana, UniProt Q9FGV1); reference: out of 4 tests).
The positive tests was 1 (IAA33 (Arabidopsis thaliana, UniProt Q9FKM7); reference: out of 4 tests).
For ARF9 519-638 (Arabidopsis thaliana, UniProt Q9XED8); weak activation fusion; reference: out of 2 tests: positive tests read 2.
The positive tests was 0 (IAA29 (Arabidopsis thaliana, UniProt Q93WC4); reference: out of 4 tests).
It gave 0 for positive tests (ARF11 500-622 (Arabidopsis thaliana, UniProt Q9ZPY6); reference: out of 4 tests).
For IAA30 (Arabidopsis thaliana, UniProt Q9M1R4); weak activation fusion; reference: out of 3 tests: positive tests read 2.
IAA28 (Arabidopsis thaliana, UniProt Q9XFM0); reference: out of 4 tests — positive tests: 2.

Set 4 — method: RNAcompete; form: RNA; matrix: in vitro; concentration: 20 nM; setting: 7-mer, probes averaged, single round; reference: mean of 7-mers; reading: higher = stronger binding
Target: PABPC1L2, full length, GST fusion (mouse, UniProt A0ABA7IW68)
Construct (chain): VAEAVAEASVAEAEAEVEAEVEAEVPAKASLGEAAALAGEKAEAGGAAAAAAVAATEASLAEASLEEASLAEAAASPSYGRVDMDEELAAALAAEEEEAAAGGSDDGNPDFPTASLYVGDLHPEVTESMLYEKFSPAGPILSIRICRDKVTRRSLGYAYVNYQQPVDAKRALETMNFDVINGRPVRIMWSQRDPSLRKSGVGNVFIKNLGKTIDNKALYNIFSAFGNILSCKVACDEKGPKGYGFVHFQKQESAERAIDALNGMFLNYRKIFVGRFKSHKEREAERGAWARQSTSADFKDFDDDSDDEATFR
`GUCCCCA` has a 7-mer Z-score of -0.45.
With `UUCGGAG` the 7-mer Z-score was 0.00798.
The 7-mer Z-score of `UGCAGGU` is reported as 0.00436.
`GGACUAA` gave a 7-mer Z-score of 0.251.
`AUUGCCC` gave a 7-mer Z-score of -0.306.
The 7-mer Z-score of `UUGCGGU` is reported as -0.166.
For `GAUUUCC`, the 7-mer Z-score was -0.342.
The 7-mer Z-score of `AGAACUG` is reported as -0.0355.

Other studies, line by line
B1: TRIM15 RING domain (UniProt Q9C019); chain SLKVVHELPACTLCAGPLEDAVTIPCGHTFCRLCLPALSQMGAQSSGKILLCPLCQEEEQAETPMA
Under “lacZ reporter activity”, `B1 (TRIM15 RING domain)` is recorded as 0 (UBE2D2 UBC core domain (UniProt P62837); yeast two-hybrid; yeast; mostly zero background; reference: not given, higher = stronger interaction).

A few entries again (set 1):
For `MHYGYNRAN`, binding read “inactive”.
`HTEFQTVSF`: binding “inactive”.
Under binding, `VTENKKIQY` is recorded as “inactive”.
